Experimental data pooled from the literature.
Every numbered part comes from another study and shows a few of its results, in no order.

Block 1
Target: RNA binding protein fox-1 homolog 2, RRM domain, GST-SBP tag (RBFOX2, Homo sapiens, UniProt O43251-10, residues 100-194)
Technique: RNA Bind-n-Seq
Molecule type: RNA
Matrix: in vitro
Concentration: 365 nM
Notes: natural RNA segment, single round, ends assumed
Reference: no-protein control
Direction: higher = stronger binding
Residues (chain): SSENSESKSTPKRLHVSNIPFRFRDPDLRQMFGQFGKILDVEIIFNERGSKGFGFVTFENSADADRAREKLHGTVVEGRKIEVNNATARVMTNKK
Strand	RBNS enrichment (R)
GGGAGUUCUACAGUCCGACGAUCGGCUGAAGGUAUUAUGACUGUAAAGGUGUCUUCAGUUGUUUUUAGGGAGAACAGGUAGUAGAAAUUCAGGAUUACCAAGUGGCCACCAGUGCACACACUCCGCAGCUGUGUGGAAUUCUCGGGUGCCAA	1.2
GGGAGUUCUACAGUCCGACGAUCAACGACUCUGCCUGCAAGUGGCAAAUACCAACAUAACCACAUCUUCCUUUUAGUUGCCACAAAUAUUCAGUUUUGUUUUAUCCAUCAUGUCCCCCAUAUGCAUGUAAUGAUGGAAUUCUCGGGUGCCAA	61.3
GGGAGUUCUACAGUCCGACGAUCGUUUGGCUCUGUAGGAGUGAGUGGCGAUUCAAAGAUGCCGGCGUCCCGCAGUGUGCGGUUCGUGCCCUUAACCACCCGCUUCUUUGUUUCCCGCCCCUCUGCUUUCGCAGUGGAAUUCUCGGGUGCCAA	0.251
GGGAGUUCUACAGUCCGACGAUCCAAGUACUAUUAUUCCAUACUACUAUAUUCUUCCAAAUAUUUGGAACACUCUUAGAAUUCCCAUUUAAUAAACCAUAUGAGAAAACCCUCUAUUACUCUUACACUUUAGUUGGAAUUCUCGGGUGCCAA	0.666
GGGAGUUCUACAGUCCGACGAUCCAAACAGCCACGCCUCUCAGGAACCCACCUGGCGGUUCCGUGAGCUCAGGCAGGCCUGACCCGGCGGCACAGCCUGGCAGGGACCUCGUCCCCAAGCCUGGCAGAAUGAGUGGAAUUCUCGGGUGCCAA	0.328
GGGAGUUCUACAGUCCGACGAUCUAGAUGAAAAAGUCUUAUUCAGAUGUAUCACAUUCAUUUUACAUUACCCACCUAUUGUCGCAUGGUAGAAUAGUUUUUUGUCUCUGAAUAUGUGAAUAACUUGACUUGCAUGGAAUUCUCGGGUGCCAA	8.98
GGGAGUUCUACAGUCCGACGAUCAGGUCCCAACUAAGUCUGGCCUGAGCUAAUUUAUUUGAGCGCAGAGUGUAAAAUUUAAUUCAAAAUGGUGGCUAUAAUCACUACAGAUAAAUUUCAUACUCUUUUGUCUUUGGAAUUCUCGGGUGCCAA	0.372
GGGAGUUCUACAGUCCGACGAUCCAAGAGAGAAGAACUAAAGAAGUUCUUUUUAUUCCUCGUUACCAAAUAAAUCAUUUCUCUCUUUACCAUGCAGUGUUACUUUUUCUCCCCCGGGCUGCUGGUCUGAUGAGUGGAAUUCUCGGGUGCCAA	0.752
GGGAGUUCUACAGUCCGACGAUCUGUGCAGAAAGUAGGCCAUUCUCAGCUAGGAUGUAGAAGAACUUGCAGGCUUUGAAACAGCCAACAGAUCCCCUUAGCUCUCUGUCAGUCACGAAGCUAUAUGCCAGGCUUGGAAUUCUCGGGUGCCAA	0.41
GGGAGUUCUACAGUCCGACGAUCUAAGACUAAGAUCUGUCUUUUUGGUGACUAACCCUUCAAUUCUUUCAACUCCUGUUAAUACCCAUAAUCAGUAACCUAUCAAGAAAAGCCCUUAUUUGGAAAGUGUGAAAUGGAAUUCUCGGGUGCCAA	0.514
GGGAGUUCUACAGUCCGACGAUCUUCCCAUGAACUCAGGGAUUUGUUGGAAGAUUCUCUGCAUAAUAGAUAUAUAUGUAUAUAUAUUUAAAUACACAUAUAUAUUGUACAGAAUAAAAAAUGUUUUAUUGGACUGGAAUUCUCGGGUGCCAA	1.04
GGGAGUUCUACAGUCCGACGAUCAGAGGUGCAUUCUCCGACCUCUGCCUCAGGCCUGAGGACGCCCACUGGGAGCUGGGGCAUUUCCAUCUCCUGGUGGCCAUCCCUGGUCAGGGUGUGAGUGAGCUCUGCUAUGGAAUUCUCGGGUGCCAA	0.409

Block 2
Target: Sal-like protein 4, full length isoform B (SALL4, Homo sapiens, UniProt Q9UJQ4-2, residues 1-616)
Technique: universal PBM
Molecule type: double-stranded DNA, one strand shown
Matrix: in vitro
Concentration: not given
Notes: 8-mer, flanks averaged, mean of replicates
Direction: higher = stronger binding
Strand	E-score
AGGGACTC	-0.199
CCTAAAAC	0.0519
ATTTAATG	0.277
ACGGAATA	0.0771
GGCTCCCC	-0.383
ACCGGGTA	-0.24
ATTCTCAA	0.197
ACTGCCTC	-0.149
AACTCATA	0.258
ACTCCAAC	-0.0838
ATAGCGCC	-0.092
GTATGAAA	0.3
TCCTACCA	-0.219
ATCATGGC	0.0508
GTCCCGGA	-0.299
CTAGGGGC	-0.193
GCGCGACC	-0.292
GCAAACCA	0.0503
CAGGGACG	-0.149
CGACCGAA	-0.18

Block 3
Target: Transcriptional repressor CTCF (CTCF, Homo sapiens, UniProt P49711, residues 1-727, full length assumed)
Technique: protein-binding microarray
Molecule type: double-stranded DNA, one strand shown
Matrix: in vitro
Concentration: not given
Notes: k-mer, scored over probes, only values ≥0.25
Direction: higher = stronger binding
Construct (chain): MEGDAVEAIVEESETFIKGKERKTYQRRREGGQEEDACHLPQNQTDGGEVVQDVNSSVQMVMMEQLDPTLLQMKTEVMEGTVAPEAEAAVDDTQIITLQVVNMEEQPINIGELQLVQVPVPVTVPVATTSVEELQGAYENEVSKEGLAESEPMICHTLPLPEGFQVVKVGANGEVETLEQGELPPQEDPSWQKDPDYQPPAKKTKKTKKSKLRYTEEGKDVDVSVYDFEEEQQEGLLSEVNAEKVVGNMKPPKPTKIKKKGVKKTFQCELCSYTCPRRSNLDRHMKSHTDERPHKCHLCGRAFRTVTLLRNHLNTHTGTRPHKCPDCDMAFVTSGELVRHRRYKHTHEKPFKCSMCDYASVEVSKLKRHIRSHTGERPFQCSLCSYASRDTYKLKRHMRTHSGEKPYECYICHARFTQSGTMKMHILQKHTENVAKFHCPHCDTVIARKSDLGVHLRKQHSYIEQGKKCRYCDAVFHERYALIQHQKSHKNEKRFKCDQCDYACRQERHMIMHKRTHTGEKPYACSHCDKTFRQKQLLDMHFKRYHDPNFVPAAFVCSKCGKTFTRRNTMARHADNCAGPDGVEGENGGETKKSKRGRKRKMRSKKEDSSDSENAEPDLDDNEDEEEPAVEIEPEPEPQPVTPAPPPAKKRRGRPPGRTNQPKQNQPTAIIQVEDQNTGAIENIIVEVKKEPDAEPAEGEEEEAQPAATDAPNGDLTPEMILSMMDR
Strand	E-score
ACATATTC	0.251
ATGCGCAG	0.319
ACATACAT	0.313
ATGCAATA	0.324
CATGTGTA	0.268
AAGAAAAT	0.279
AGTGTTAT	0.287
ATTATCTA	0.259
AATACCAC	0.264
ATACACAT	0.34
ATTAACAA	0.276
ATGAGAAT	0.265
GGGCGCAA	0.379
GCGCATCA	0.303
ATCCAAAC	0.252
ATAGATAC	0.309
ATTGTTAC	0.329
GTGTCATA	0.291
ATATAAAT	0.355
ATGTATCA	0.273
GGCGCATA	0.423
AATTAGTA	0.267
ATTATTAA	0.356
ATAATACC	0.251
ATAACAAA	0.28

Block 4
Target: Histone acetyltransferase KAT6A, winged helix 1, GST fusion (KAT6A, Homo sapiens, UniProt Q92794, residues 1-85)
Technique: protein binding microarray
Molecule type: double-stranded DNA, one strand shown
Matrix: in vitro
Concentration: not given
Notes: 8-mer, flanks averaged, mean of 2 arrays, mostly near background
Reference: not given
Direction: higher = stronger binding
Residues (chain): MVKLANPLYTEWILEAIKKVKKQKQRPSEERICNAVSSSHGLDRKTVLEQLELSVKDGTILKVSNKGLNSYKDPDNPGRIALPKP
Strand	E-score
CCCCTGCA	-0.151
CGGTCGAA	0.205
ATCTCGTA	-0.167
CCCATCGG	0.103
AAGCGCAT	0.229
GAGCCCCA	-0.169
TGCTATAA	-0.163
AAATTCAT	-0.165
TAGACTAA	-0.0542
CCTGTACC	-0.125
GGGTGACC	0.136
TCCGAGAA	-0.0205
CATGTGAA	-0.0261
TAGCGTAA	0.148
GCCAGGAA	0.0566
GTATACAA	-0.147

For quick reference, copied from above (block 3):
Strand	E-score
ATTAACAA	0.276
ATGAGAAT	0.265
GGGCGCAA	0.379
GCGCATCA	0.303
ATCCAAAC	0.252
